# Measurements collected from several papers.
# Each numbered part is a random draw from the data of one study; scales do not carry over between parts. Changes are numbered by the printed parent chain.

# Series 1 — technique: universal PBM; form: double-stranded DNA, one strand shown; matrix: in vitro; concentration: not given; reading: higher = stronger binding
# Target: Sal-like protein 4, full length isoform B (SALL4, Homo sapiens, UniProt Q9UJQ4-2, residues 1-616)
# Setting: 8-mer, flanks averaged, mean of replicates
# Residues (chain): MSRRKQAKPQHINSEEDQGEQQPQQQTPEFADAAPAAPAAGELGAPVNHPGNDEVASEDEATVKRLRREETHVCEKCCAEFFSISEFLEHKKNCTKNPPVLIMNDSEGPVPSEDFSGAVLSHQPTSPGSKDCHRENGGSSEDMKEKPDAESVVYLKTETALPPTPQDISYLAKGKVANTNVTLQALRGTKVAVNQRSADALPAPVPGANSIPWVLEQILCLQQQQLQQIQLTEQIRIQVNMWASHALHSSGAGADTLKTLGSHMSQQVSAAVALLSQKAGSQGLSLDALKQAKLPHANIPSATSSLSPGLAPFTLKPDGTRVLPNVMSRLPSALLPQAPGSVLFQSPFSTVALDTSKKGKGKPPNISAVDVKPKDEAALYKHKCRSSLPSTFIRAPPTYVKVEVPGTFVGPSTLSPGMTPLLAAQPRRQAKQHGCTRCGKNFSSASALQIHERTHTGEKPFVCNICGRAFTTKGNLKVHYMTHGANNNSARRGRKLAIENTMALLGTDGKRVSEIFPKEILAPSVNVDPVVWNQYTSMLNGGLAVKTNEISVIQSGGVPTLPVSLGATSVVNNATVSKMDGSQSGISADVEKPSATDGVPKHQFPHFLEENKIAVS
Oligonucleotide,E-score
AATCGACC,-0.0575
ACGGTTAA,0.143
CAGCAAGG,-0.218
CCGCACTA,-0.11
GTGTTAAA,0.193
AAACATAT,0.356
CGTGGCGA,-0.298
CCAAGAAG,-0.092
GAATCCTA,0.192
ACAACGGT,-0.0369
CCGCGCCG,-0.273
CAGCCGAA,-0.152
CATTAAGG,0.131
AGCATGCT,-0.0599
AAGAGTTC,-0.106
CAGAGGGG,-0.373
CTATCGGA,0.057
AGGAGGCC,-0.298
GTATTCTA,0.187
CCGTAGGA,-0.23
CACAGGAA,0.048

# Series 2 — target: CREBZF, bZIP domain (human); technique: DHFR protein complementation; matrix: yeast; relative to: wild-type JUN-FOS pair; reading: higher = stronger binding
# Setting: single substitutions, most at no-binding floor
# Starting sequence: JUN, bZIP domain (human); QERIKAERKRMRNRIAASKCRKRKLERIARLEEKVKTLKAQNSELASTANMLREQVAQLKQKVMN; partner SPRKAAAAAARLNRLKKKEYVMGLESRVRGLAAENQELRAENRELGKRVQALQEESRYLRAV
Variant,binding fitness [natural log]
K39D,-1.23
V56E,-1.57
S47D,-1.4
E32I,-1.51
Q55V,-1.52
A49L,-1.5
A46Q,-1.31
T37K,-1.48
N42A,-1.48
A57E,-1.03
Q55E,-1.48
L45C,-1.49
V56P,-1.51
K39T,-1.45
L31D,-1.52
S43A,-1.33
R30A,-1.36
Q55R,-1.51
V56D,-1.49
S43K,-1.5
V35K,-1.47
E32A,-1.4
K39L,-1.46
N42V,-1.36
R30K,-1.25

# Series 3 — technique: DHFR PCA, deep sequencing; matrix: yeast; with: (+)-ABA 58 µM; relative to: wild-type fitted maximum; reading: higher = stronger binding
# Target: ABI1, truncated, D143A, DHFR fusion (Arabidopsis thaliana)
# Setting: methotrexate growth selection, single substitutions
# Starting sequence: PYL1, truncated, DHFR fusion (Arabidopsis thaliana); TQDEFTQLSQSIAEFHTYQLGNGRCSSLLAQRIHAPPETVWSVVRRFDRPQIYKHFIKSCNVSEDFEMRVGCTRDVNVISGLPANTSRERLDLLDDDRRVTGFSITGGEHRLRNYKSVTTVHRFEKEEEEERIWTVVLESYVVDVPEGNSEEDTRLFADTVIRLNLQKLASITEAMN; partner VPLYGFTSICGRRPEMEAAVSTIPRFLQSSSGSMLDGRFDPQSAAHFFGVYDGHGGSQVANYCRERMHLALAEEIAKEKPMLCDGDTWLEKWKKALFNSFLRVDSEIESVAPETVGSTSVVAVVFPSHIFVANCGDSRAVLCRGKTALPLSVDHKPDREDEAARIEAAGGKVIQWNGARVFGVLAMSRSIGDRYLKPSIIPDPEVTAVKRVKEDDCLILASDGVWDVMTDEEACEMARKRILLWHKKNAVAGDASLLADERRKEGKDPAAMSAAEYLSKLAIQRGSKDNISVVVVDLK
Variant,relative binding score
R74K,7.47%
V145S,32.8%
L82R,-1.41%
D48P,11.2%
T154W,-3.44%
Y141T,-2.88%
H110C,17.3%
I52L,85.1%
S104P,-8.07%
T135R,-10.4%
T73D,48.5%
H16V,5.16%
V62G,20.2%
G21M,85.7%
S27F,-4.03%
G21D,87%

# Series 4 — technique: RNA Bind-n-Seq; form: RNA; matrix: in vitro; concentration: 365 nM; relative to: no-protein control; reading: higher = stronger binding
# Target: RNA binding protein fox-1 homolog 2, RRM domain, GST-SBP tag (RBFOX2, Homo sapiens, UniProt O43251-10, residues 100-194)
# Setting: natural RNA segment, single round, ends assumed
# Shared flanks, not repeated: GGGAGUUCUACAGUCCGACGAUC … UGGAAUUCUCGGGUGCCAA
# Residues (chain): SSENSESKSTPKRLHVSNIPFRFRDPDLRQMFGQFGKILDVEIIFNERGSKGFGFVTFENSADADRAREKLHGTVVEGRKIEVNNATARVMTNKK
Oligonucleotide,RBNS enrichment (R)
GGGCACACGCCUCAGAGCUGCCACAUGCUAGGGACAAACGCUACUGCCACAGGAAAACAGUGGUAGCUUAGAGAGGGCUCAGAUCCCUGGGUGCCAGUUUUUUAAUCACU,0.464
AAAAACCCUAUAUAUAUAUAUUAUAUAUAAAACAAUGUUCAUAGACAAUCUGAACUAUGUUUCUGAUGUGUGCACACUUUCCAUUUUAGUGCUAUUUUACAUCUGUUCGU,0.663
CCUGCCCCAUCCCCAGGGCCGCCAGGCUUGCUCCGUUUGCUUUGAGUUUUUAGACCCCAGAGGGAGAUGAGCUUUUCCAAGCUGUGUCUGGGCCAGAGCCUCUCCUUGCC,0.762
CUGUGCAGGAGUGGCCGGGGAAGCUGGCAGCACUCAGUGAGGCCGCCCGGCACACAAGGCACGUUUGGCAUUUCUCUUUGAGAGAGUUUAUCAUUGGGAGAAGCCGCAGG,0.266
ACAUUGCUAAAAGGACAUUUUGUGUAGGGUCAAGUUAUUUUUAUAUGAGUUAAUGUGAAGUUGUAAAUGGGAAUCUAUAGCAAUGAUGUCUGUAUAAAUCUGUCUUAUCU,0.595
UUUUUAUAUGAUUUUCUUGACUGCACGUUGGCCAGAAGGACUGCUGGCCUGGCCUCCUUUCCGUCCGGGCAGCUGUGCUGCAGAGACAAAAAGUGGUGCUGAGGGACUCC,0.291
CCCCCUCAGGAGUAUUUUUGUUGAGGCUUUCCUGGAGGUGAAGAAGCAAUUCCCAUUGCAGCAGGUUAGAGCGAGAAUCAGACAGAGGGCAAAAACCAAUUCGCUUCUCC,0.537
CUCUCCAGUCAAAGAAACAAAGCUAAUUGAAAUAAUGUACAUUUGGUUCAGUCUGUCAGGCAAGUACAAAUCCAUAACAAAAAAAAUUAAUAGUAUGCUCUUUGCUUUGG,0.633
AAGCUGUGCGUGUGUGUGUGUGUAUGUGUGUGUGUGUAUGUGUAUCUCACACUCAUGCAUUGUCCUCUUUUUAUUUAGAUUGGCAGUGUAGGGAGUUGUGGGUAGUGGGG,1.67
AGGGAUAAGGCUUCAGUGCUGUUGGGAGCCCUCUGGCUCCAAAUGUCUGACUAUCUUGAGGGAGAAACAAGCAGGUUUCUACUAGUGGUGUCUUCUGUUGUAUUAACUUC,0.372
GCUACAGCACCAUCGCGUGCAUAGUGGGGAGCGACCUUAUAAGUGUGAUGACUGUGGAAAGGCCUUCUCGCAGAGCUCCGACCUCAUCCGCCACCAGCGGACCCACGCAG,0.213
GAUUUCUAAAUGGUUCUGGAUUCCAUGUUUUCUCUAUUCGUUUAGAAGAAGUUGGAGGAUGGUGCUGAAUGCAGUUUUGUUUAUUCCAAGAAAAAAUAUUUAUAAUAAAA,0.545

# Series 5 — target: CCND1, cyclin fold, Cln2 fusion (human); technique: yeast growth competition, sequencing; matrix: yeast; setting: weak parent motif; relative to: not given; reading: higher = stronger binding
# Starting sequence: CDKN1B docking peptide (human); PSACRNLFGPVDH; partner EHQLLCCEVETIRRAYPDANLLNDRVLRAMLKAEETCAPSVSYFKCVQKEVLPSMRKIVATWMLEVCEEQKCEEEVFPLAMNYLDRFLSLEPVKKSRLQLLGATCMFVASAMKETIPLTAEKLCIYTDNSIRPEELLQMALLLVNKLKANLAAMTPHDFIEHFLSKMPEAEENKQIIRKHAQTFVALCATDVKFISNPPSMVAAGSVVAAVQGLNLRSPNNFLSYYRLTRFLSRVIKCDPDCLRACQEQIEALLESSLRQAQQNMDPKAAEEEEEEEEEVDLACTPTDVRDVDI
Variant,normalised enrichment score
A3Y,0.0597
V11H,1.08
A3L,0.187
P1A,1.13
D12H,0.342
C4K,0.0313
L7T,-0.0536
N6V,2.42
A3P,0.554
H13S,1.04
D12N,0.637
R5H,0.316
N6M,1.63
P1H,0.802
R5T,0.166
G9L,0.504
R5D,0.296
R5F,0.501
S2G,0.095
H13T,1.37
R5C,0.27
S2V,0.623
P1V,0.605
P10D,1.06
H13R,0.686

# Some of these lines once more (series 1):
Oligonucleotide,E-score
ACGGTTAA,0.143
CAGCAAGG,-0.218
CCGCACTA,-0.11
GTGTTAAA,0.193
AAACATAT,0.356
CGTGGCGA,-0.298
CCAAGAAG,-0.092
GAATCCTA,0.192
ACAACGGT,-0.0369
CCGCGCCG,-0.273
CAGCCGAA,-0.152
CATTAAGG,0.131
AGCATGCT,-0.0599
AAGAGTTC,-0.106
CAGAGGGG,-0.373
